Measured values from different studies.
Each numbered part is a random draw from the data of one study; scales do not carry over between parts. Changes are numbered by the printed parent chain.

Set 1 — target: CCNA2, cyclin fold, Cln2 fusion (human); technique: yeast growth competition, sequencing; medium: yeast; notes: strong parent motif; baseline: not given; direction: higher = stronger binding
Starting sequence: CENPC docking peptide (human); VKTKKRLNFDDKV
| Change | normalised enrichment score |
| --- | --- |
| V1A | 5.41 |
| K12A | 5.81 |
| L7A | 0.866 |
| K5R | 6.84 |
| F9A | 1.47 |
| D10A | 2.84 |
| K2A | 3.79 |

Set 2 — technique: RNA Bind-n-Seq; molecule type: RNA; medium: in vitro; concentration: 365 nM; baseline: no-protein control; direction: higher = stronger binding
Target: RNA binding protein fox-1 homolog 2, RRM domain, GST-SBP tag (RBFOX2, Homo sapiens, UniProt O43251-10, residues 100-194)
Notes: natural RNA segment, single round, ends assumed
All sequences stand within: GGGAGUUCUACAGUCCGACGAUC … UGGAAUUCUCGGGUGCCAA
Construct (chain): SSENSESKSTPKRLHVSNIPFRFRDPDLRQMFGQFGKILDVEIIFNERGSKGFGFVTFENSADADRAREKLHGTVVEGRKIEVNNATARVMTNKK
| Sequence | RBNS enrichment (R) |
| --- | --- |
| AUUAAUGAAAAAUGACAAAGCAGUGUACUGAUAAGCCAAGGUGCUUUUGAUCUGUAAUUUCUUCUCUAAAACUGCUGCAUCUGGUACAGUAGACUGUGGAAGGUGUUGAU | 0.355 |
| UAGUUGUGUGGCGUGAACUCUGCCCGUGUGUUCUCAAAUUCCCCAGCUUGGGAAAUAGCCCUUGGUGUGGGUUUUAUCUCUGGUUUGUGUUCUCCGUGGUGGAAUUGACC | 0.483 |
| UCUGGAACAUGGGCACAGAGAGGGGCCUGUGGGAGGGGCUGGGAAAAUAAAGUCCAAGGUCGAGACCAGACAGCUGCCAGCCUCUACAUGCCUUCAUGAGCCUCUGCUCC | 0.483 |
| CUGGGUUCCGCCCGGUCUCCACCCUCCCUCCGCCUCCCUUGGUUAGUUUCACAGUGCUGGCAAUGAAGCCCGUGGCCCACCACGCUAGGCGAGUGCUCUGCCACUGAGUC | 0.284 |
| GAAGAGAACCUUGUGCUGAGGUAAUGGCCUCCCACUGCCGCCUGAGUGCUGAAAUGAGCUUGAGGUGUUCUUCAAAGCCAGUGUCACUGUGUGGGUCACUGUGAGGUGAC | 0.371 |
| UAAUUGUUUACAAUAUUUGUACAUCUAUGCAAAAUACUUGAAUGGGCCAUGGUGCCUUUUUUCCUUGUUAGUAUUUAAUUAAAAAUGAAUUGUUUGUCAUUUGCAAUGUU | 0.652 |
| UUUUCCUCCCUCUUUUCCCCUUGCCCCCUCUGCAGCCGGAGGAGGAGAUGUUGAGGGGAGGAGGCCAGCCAGUGUGACCGGCGCUAGGAAAUGACCCGAGAACCCCGUUG | 0.41 |
| AUUUGGUGGGUAGAAAUACAGUCAGGUGGUUAUAGAGCACAUACCUAGCAUAUGUGAAGCCAUGGGUUCUAUUCUCAGAACUGAAAAAAAAAAAAAUUCCAUCCUCGUAU | 0.504 |

Set 3 — technique: protein binding microarray; molecule type: double-stranded DNA, one strand shown; medium: in vitro; concentration: not given; baseline: not given; direction: higher = stronger binding
Target: Histone acetyltransferase KAT6A, winged helix 1, GST fusion (KAT6A, Homo sapiens, UniProt Q92794, residues 1-85)
Notes: 8-mer, flanks averaged, mean of 2 arrays, mostly near background
Construct (chain): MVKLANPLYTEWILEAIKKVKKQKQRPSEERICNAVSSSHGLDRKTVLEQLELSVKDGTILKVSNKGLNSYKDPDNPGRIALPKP
| Sequence | E-score |
| --- | --- |
| AGCCGTGC | 0.362 |
| TTCGTAAA | -0.162 |
| CGACCTTA | 0.043 |
| AGTGAAAG | -0.0166 |
| GACGTTGC | 0.0582 |
| GCCTTAAA | 0.0288 |

Other studies, line by line — technique: surface plasmon resonance; molecule type: double-stranded DNA, one strand shown; medium: in vitro; concentration: 1 nM to 1 µM; notes: 10-bp κB site, 1:1 kinetic fit, 10 °C; direction: higher = slower dissociation
Target: Proto-oncogene c-Rel, Rel homology region (Rel, Mus musculus, UniProt P15307, residues 1-282)
Chain of UniProt P15307 (1-282, looked up): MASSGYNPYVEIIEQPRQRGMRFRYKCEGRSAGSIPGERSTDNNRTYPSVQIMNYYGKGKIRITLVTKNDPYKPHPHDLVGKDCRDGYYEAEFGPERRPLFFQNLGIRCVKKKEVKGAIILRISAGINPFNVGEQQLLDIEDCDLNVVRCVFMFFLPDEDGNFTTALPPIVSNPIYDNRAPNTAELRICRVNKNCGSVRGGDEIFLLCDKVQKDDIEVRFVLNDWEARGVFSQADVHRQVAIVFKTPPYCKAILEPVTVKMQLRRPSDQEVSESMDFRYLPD
| Sequence | dissociation half-life |
| --- | --- |
| GGAAATTCCC | 6.12 min |
| GGAATTTCTT | 1.53 min |
